Experimental data collected from several papers.
Each numbered part is a random draw from the data of one study; scales do not carry over between parts. Positions count from the first letter of the parent shown.

Block 1
Target: RING finger protein unkempt homolog, zinc fingers 1-6, SBP tag (UNK, Homo sapiens, UniProt Q9C0B0, residues 30-357)
UniProt Q9C0B0, sequence (30-357, looked up): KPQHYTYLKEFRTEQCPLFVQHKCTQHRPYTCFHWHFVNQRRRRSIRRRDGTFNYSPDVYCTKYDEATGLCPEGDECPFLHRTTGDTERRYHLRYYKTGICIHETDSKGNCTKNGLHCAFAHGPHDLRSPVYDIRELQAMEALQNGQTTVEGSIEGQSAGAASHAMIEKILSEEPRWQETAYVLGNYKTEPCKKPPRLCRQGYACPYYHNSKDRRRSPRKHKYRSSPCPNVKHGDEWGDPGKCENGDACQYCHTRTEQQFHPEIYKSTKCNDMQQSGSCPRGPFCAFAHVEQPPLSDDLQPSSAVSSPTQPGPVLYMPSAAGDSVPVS
Method: RNA Bind-n-Seq
Molecule type: RNA
Matrix: in vitro
Tested at: 100 nM
Notes: RNA with constant flanks, vertebrate orthologous sites, ends assumed
Baseline: input RNA pool
Reading: higher = stronger binding
The bound/input enrichment of `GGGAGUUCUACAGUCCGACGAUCCAGGGAUGGCCCUAAUCCCACCUCUGUUUAUUCUGUAAACUACAACCUGUAAAUAACGUUUAGCAUUCCUAUUGUAACAAAAUUAAUUUUUAUGAAAUAAAUUAUAUUUCCUAGUCUAAUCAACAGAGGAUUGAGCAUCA` is reported as 1.23 ratio.
For `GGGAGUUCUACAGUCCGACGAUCUACCUCCUGAACUUCUAGCUUUCAAGUUGUGGCCGUUUUAGAUACUGGCUUUCUUUUCUUCAGAAUUUUUCCCUGUUUCCCACAUUCUCUUCCCCUGUUCCCAAGGUCUGACUCAUGGAUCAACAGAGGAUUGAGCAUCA`, the bound/input enrichment was 1.12 ratio.
`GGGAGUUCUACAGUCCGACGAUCGUUGUGACCCAUUUAACAUACACAAAAAGCUAGCCAAAAAGAAUCUGCAUGUAAUUGAUUUAGAUGAUGCCACGUUUCUGAGUGCAAAGUUUGGAAGACAGCUGGUUCCUGGUUGGAAGCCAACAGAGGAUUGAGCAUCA` gave a bound/input enrichment of 0.713 ratio.
`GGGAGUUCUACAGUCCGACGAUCCCCCGAUUUUAGAUGUGAUAUCUAGGUUUUCAUUCCAGUUUGUUUUUGUCUUUUCUUGUUUAGAUACCAAUCUUUUAAAUUCUUGCAUUUUAGUAAGAAAGCUACCUUUUUAUGGAUGUUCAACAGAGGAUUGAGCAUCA` has a bound/input enrichment of 1.47 ratio.
With `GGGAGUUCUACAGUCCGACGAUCCAACUCCAUGGUUGAGGGCUCGGAGCUCAAAAAGGUCCGGUCCAAUUCGAGGAUUUACCAUCGCUAUUUCUUACUGGACGCUGACAUGCAGAGCUUGAGGUGGGAGCCAUCCAAGAAGGACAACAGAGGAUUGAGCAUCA` the bound/input enrichment was 0.194 ratio.
`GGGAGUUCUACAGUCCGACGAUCUCUCUCACUUAGCUGUGUCCAAAAUUGCUAUGAGGGUUGGAAACAUUGAUUAGUUUCAUGUAGAACUACACUGGCAGGUGCUUAGUUACCAUCAUAGCAAGGUCAAACACCAUCACAGUACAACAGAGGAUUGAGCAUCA` gave a bound/input enrichment of 1.36 ratio.

Block 2
Target: TAR DNA-binding protein 43, full length, His tag (TARDBP, Homo sapiens, UniProt Q13148, residues 1-414)
Method: RNA Bind-n-Seq
Molecule type: RNA
Matrix: in vitro
Tested at: 20 nM
Notes: 6-mer, flanks averaged, single round
With: 150 mM LiCl
Baseline: input library
Reading: higher = stronger binding
`CGGUCG`: “6-mer enrichment (R)” 0.965.
`ACGAAG` — result for “6-mer enrichment (R)”: 0.836.
`CGCUAG` — result for “6-mer enrichment (R)”: 0.89.
`GGACCC`: “6-mer enrichment (R)” 1.
`AAGCGG` — result for “6-mer enrichment (R)”: 0.953.
`UGCCAU` — result for “6-mer enrichment (R)”: 0.952.
Under “6-mer enrichment (R)”, `UCGUUC` is recorded as 0.876.
`CCAUAA` — result for “6-mer enrichment (R)”: 0.877.
`CCUCAC`: “6-mer enrichment (R)” 0.942.
`GGCACG` — result for “6-mer enrichment (R)”: 0.992.
`AGUCCG`: “6-mer enrichment (R)” 0.854.
`CCAACG`: “6-mer enrichment (R)” 0.846.
`CGCUUC` — result for “6-mer enrichment (R)”: 0.866.
`CCUACU`: “6-mer enrichment (R)” 0.908.

Block 3
Target: CCNB3, cyclin fold, Cln2 fusion (human)
Method: yeast growth competition, sequencing
Matrix: yeast
Notes: weak parent motif
Baseline: not given
Reading: higher = stronger binding
Parent: GMNC docking peptide (human); KNAKRNLSSEFAN; partner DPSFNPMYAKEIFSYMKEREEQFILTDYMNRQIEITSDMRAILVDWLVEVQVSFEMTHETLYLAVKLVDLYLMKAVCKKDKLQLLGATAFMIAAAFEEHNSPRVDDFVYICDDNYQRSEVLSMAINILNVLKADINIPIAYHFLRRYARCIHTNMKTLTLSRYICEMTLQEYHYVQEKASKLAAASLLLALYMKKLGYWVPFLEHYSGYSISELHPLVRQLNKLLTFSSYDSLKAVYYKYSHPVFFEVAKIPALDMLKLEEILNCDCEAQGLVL
`S9E`: “normalised enrichment score” 0.201.
`K4H`: “normalised enrichment score” -0.257.
`A3F` — result for “normalised enrichment score”: 0.262.
For `R5E`, “normalised enrichment score” read 0.176.
`S8E` — result for “normalised enrichment score”: -0.0476.
Under “normalised enrichment score”, `N6P` is recorded as 0.0367.
`L7Q` — result for “normalised enrichment score”: -0.0338.
`A3D` — result for “normalised enrichment score”: 0.272.
Under “normalised enrichment score”, `F11K` is recorded as 0.319.
For `N6S`, “normalised enrichment score” read 0.249.
`A3M` — result for “normalised enrichment score”: 0.297.
For `A12V`, “normalised enrichment score” read -0.206.
Under “normalised enrichment score”, `S8Q` is recorded as 0.58.
`F11V`: “normalised enrichment score” 0.122.
`F11M` — result for “normalised enrichment score”: 0.46.

Block 4
Target: RNA binding protein fox-1 homolog 2, RRM domain, GST-SBP tag (RBFOX2, Homo sapiens, UniProt O43251-10, residues 100-194)
Method: RNA Bind-n-Seq
Molecule type: RNA
Matrix: in vitro
Tested at: 365 nM
Notes: natural RNA segment, single round, ends assumed
Baseline: no-protein control
Reading: higher = stronger binding
Target sequence (chain): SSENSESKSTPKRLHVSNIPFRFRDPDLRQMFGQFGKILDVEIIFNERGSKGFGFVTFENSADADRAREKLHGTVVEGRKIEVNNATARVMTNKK
For `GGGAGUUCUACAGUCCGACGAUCGACAUGAGAUGUAUUUAAGGAAAGUAGUCACUAUUCAAAGAACAAAUUAAAGUGUUUAUAACAAACUUGAACCCUUACUGUGUUGUGCUCUGUAAACACCCGGUGGCUACUGGAAUUCUCGGGUGCCAA`, “RBNS enrichment (R)” read 0.348.
`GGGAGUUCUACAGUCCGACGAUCCAUGAUACCACACAGUCAUUUCCCAAUCAGUGCCUCACACAUCUAUCUGAUGGUGCAGUUUUGGGGUCUGUCCCCACUCCCCUCAGUCCCUACCCCUGCUCCCCUCAGACUGGAAUUCUCGGGUGCCAA`: “RBNS enrichment (R)” 0.485.
`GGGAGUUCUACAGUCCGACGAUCAGCUGCCAGCCACAGGUUUCUAUUCUGAGUUCUCCAGUCUUGUGAAAGAGGAGAAUUUCCCAGUCAGGUAGCCAGGAGAACAGUGCCACCCUGCGAUUGUGCCACCCUGUUGGAAUUCUCGGGUGCCAA`: “RBNS enrichment (R)” 0.332.
`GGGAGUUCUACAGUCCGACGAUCCUGCACUUCCCUUGUGAUAUCAAAGUAUAACAAACGUGCUAAUUUUUCUUAAUAUCCCUCUAUAAUGCCAGAAAUUGGCAUAAAUGGUACAUUCACUAAAUUUAUCAAAUUGGAAUUCUCGGGUGCCAA` — result for “RBNS enrichment (R)”: 0.409.
For `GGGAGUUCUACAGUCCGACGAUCUCAGUGUCCUUGGCAGGCUGAUUUCUAGGUAGGAAAUGUGGUAGCCUCACUUUUAAUGAACAAAUGGCCUUUAUUAAAAACUGAGUGACUCUAUAUAGCUGAUCAGUUUUUGGAAUUCUCGGGUGCCAA`, “RBNS enrichment (R)” read 0.998.
`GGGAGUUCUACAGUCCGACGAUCAGACCUAGAAGUCACUUUUAUGAUUUAUGAUAUAUGAUGUGUUUUUUACUAUUGUAUGUCAUUUAAUUCUGAUCUGUUUAAUGCUACAAAAGUAAAGUUGAAAAGAUCUAUGGAAUUCUCGGGUGCCAA` — result for “RBNS enrichment (R)”: 0.28.
For `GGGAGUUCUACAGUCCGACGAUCUAUUUUGAAUUGGAUCGUUACAAAUGAGCAUAUUUGAUGCGGAAAUUUCUGGGAGAAAAAAAAUUGAGGAAAUAAAGUUAAAAAAUUGACAUUCAUUGAGCCAAAAGAGAUGGAAUUCUCGGGUGCCAA`, “RBNS enrichment (R)” read 0.8.
Under “RBNS enrichment (R)”, `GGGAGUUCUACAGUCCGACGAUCUGCUGUUUUUUGUUUUUUAAGGUGAGUUCUCACUAUGUUUCUCAGACUGGUCUCGAACUCCUGGCCUCAAGCCAUCUUCCCGCCUCAGCCUCUCAAAUAGCUGGGCUUACUGGAAUUCUCGGGUGCCAA` is recorded as 0.775.
`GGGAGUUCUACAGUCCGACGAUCGGACCCAAGUUCUAGGUGCACACUUUUGCAAGCUUCCUACAAGCCCAGACUGACUUACACUAACCUAACUGCUCAGUGGCUGUCUAGAGACACUUUAGGAAGAUAAACUGUGGAAUUCUCGGGUGCCAA` — result for “RBNS enrichment (R)”: 0.461.
`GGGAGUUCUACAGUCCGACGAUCAGACAUGCUAGGAUUAAGGGUGUGUGCCACUAUGCCUGGCUUAAGUCUUUUUCUCACUCAAACCUUCUCUCUGUAGAAGCAGAAAAGUUGCUGAUAGCCAGGAAAGAGAGUGGAAUUCUCGGGUGCCAA`: “RBNS enrichment (R)” 0.386.
Under “RBNS enrichment (R)”, `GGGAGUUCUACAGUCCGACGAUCCAUUUUCACAAUAAACAGAUCUGUUCAUACAUUUUUGUUAUUUUAUAAAUAAAUUACUUAAUUUUAGUUUGUAUCUGUGGGAUUUUUUUUUUUACCUUGCUGCCUACAUUUGGAAUUCUCGGGUGCCAA` is recorded as 1.65.
Under “RBNS enrichment (R)”, `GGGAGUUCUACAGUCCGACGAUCGGGAAAGACUGGCCCCCAUGAUUCAAUUACCUCCCCUUGGGUCUCUCCCACAACACGUGGGAAUUCUGGUAGAUACAAUUUCAAGUUGAGAUUUGGGUGGGGACAUAGCCUGGAAUUCUCGGGUGCCAA` is recorded as 0.688.

Block 5
Target: ABI1, truncated, D143A, DHFR fusion (Arabidopsis thaliana, UniProt P49597)
Method: DHFR PCA, dose-response
Matrix: yeast
Notes: Hill fit, mean, not affinity
With: (+)-ABA, dose series
Reading: lower = more sensitive
Parent: PYL1, truncated, DHFR fusion (Arabidopsis thaliana, UniProt Q8VZS8); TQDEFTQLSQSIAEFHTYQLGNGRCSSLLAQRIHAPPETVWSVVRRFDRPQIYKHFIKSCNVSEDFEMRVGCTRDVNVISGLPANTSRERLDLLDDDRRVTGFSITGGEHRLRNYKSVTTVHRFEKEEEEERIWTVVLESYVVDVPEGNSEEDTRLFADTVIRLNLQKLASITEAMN
For `S104R`, the ABA EC50 was 18.1 µM.
For `V142D`, the ABA EC50 was 27.6 µM.
With `R113S` the ABA EC50 was 2.67 µM.
For `E4A`, the ABA EC50 was 2.52 µM.
`D48P` gave an ABA EC50 of 255 µM.
`G102N` has an ABA EC50 of 981 µM.
The ABA EC50 of `K168C` is reported as 1.46 µM.
The ABA EC50 of `A35N` is reported as 279 µM.
`R49F` gave an ABA EC50 of 19.8 µM.
With `C72L` the ABA EC50 was 17.4 µM.
The ABA EC50 of `Y53W` is reported as 14.3 µM.

Block 6
Target: Histone acetyltransferase KAT6A, winged helix 2, GST fusion (KAT6A, Homo sapiens, UniProt Q92794, residues 85-181)
Method: protein binding microarray
Molecule type: double-stranded DNA, one strand shown
Matrix: in vitro
Tested at: not given
Notes: 8-mer, flanks averaged, mean of 2 arrays, mostly near background
Baseline: not given
Reading: higher = stronger binding
Target sequence (chain): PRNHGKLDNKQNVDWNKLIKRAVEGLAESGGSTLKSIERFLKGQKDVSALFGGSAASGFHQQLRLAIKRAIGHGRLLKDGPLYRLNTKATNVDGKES
`CGCCTGGA` has an E-score of 0.0687.
For `TCGTACCA`, the E-score was 0.0215.
For `GCCTTCGA`, the E-score was 0.0436.
`GTTCTACA` has an E-score of -0.105.
The E-score of `ACAGAGCT` is reported as 0.0374.
With `AGCTTATG` the E-score was -0.0422.
`AGTGCCCC` has an E-score of 0.0241.
For `GTTACCCA`, the E-score was -0.034.
`GGTGAGCA` has an E-score of 0.0651.
For `CTCGGGCC`, the E-score was 0.068.
For `CAGCCCTG`, the E-score was -0.181.
`ACCACCTA` has an E-score of -0.276.
`GGATCGAC` has an E-score of 0.135.
With `AACGACGG` the E-score was 0.0821.
For `ACTATTAG`, the E-score was -0.03.

Block 7
Target: Sal-like protein 4, full length isoform A (SALL4, Homo sapiens, UniProt Q9UJQ4, residues 1-1053)
UniProt Q9UJQ4, sequence (whole entry, looked up): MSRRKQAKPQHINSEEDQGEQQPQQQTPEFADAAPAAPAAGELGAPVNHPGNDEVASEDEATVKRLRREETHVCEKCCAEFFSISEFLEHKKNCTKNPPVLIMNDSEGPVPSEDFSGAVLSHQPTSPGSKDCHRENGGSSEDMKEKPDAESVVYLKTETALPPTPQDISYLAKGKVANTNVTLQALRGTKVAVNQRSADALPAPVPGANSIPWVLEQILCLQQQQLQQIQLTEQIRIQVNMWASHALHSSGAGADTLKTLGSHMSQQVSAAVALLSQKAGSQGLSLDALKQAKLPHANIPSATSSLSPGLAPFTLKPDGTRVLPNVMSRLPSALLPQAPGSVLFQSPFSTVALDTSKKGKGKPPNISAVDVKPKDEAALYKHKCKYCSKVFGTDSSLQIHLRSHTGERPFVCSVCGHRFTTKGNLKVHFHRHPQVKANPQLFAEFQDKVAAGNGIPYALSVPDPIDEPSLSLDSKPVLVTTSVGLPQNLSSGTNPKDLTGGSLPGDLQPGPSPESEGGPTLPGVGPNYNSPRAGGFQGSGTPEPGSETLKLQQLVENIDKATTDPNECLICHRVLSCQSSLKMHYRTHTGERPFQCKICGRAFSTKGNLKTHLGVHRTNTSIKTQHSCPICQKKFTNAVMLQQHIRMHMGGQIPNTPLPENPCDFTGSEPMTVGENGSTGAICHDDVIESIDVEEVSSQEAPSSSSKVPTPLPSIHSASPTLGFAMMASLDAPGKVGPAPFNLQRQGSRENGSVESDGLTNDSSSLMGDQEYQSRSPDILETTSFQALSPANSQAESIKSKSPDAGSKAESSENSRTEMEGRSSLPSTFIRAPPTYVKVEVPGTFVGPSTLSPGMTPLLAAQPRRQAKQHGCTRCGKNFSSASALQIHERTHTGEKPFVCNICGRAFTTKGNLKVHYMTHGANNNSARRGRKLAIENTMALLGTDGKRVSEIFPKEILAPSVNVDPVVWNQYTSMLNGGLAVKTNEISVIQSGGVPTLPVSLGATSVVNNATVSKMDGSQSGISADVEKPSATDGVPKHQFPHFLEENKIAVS
Method: universal PBM
Molecule type: double-stranded DNA, one strand shown
Matrix: in vitro
Tested at: 600 nM
Notes: 8-mer, flanks averaged, mean of replicates
Reading: higher = stronger binding
The E-score of `GTCAAGTA` is reported as 0.0165.
The E-score of `ACATGGAC` is reported as 0.0704.
With `ACAGAGGT` the E-score was 0.0174.
With `CAACAGTG` the E-score was 0.0139.
For `AGGTCCAA`, the E-score was -0.0607.
The E-score of `AAACGTTG` is reported as -0.101.
`CATCTAGC` has an E-score of 0.037.
With `CCACAACC` the E-score was -0.0258.
The E-score of `AGGAGAAA` is reported as 0.0586.
For `ACCTCGCT`, the E-score was -0.0582.
`CAATGCTC` has an E-score of 0.0718.
With `TAAGTCAA` the E-score was 0.19.
`ATCATCTG` gave an E-score of 0.00169.
With `CTCCATAC` the E-score was -0.0765.
